Measurements collected from several papers.
Protocols differ between the studies behind these lines. Numbers after ± are the reported error.

SMILES = CNC(=O)c1cc(Oc2ccc(NC(=O)Nc3cc(C(C)(C)C)nn3-c3ccc4ncccc4c3)c(F)c2)ccn1; test = pancreatitis, NCI CTC v3.0; test system = human patients; conditions = oral, 150 mg twice daily, tablet, dose at onset; measurement = related SAE; value = 3%
SMILES = CCc1ccc(CC/C=C/c2ccc3c(c2)C(=O)CC3)cc1; test system = Sprague-Dawley rat, male, serum; conditions = oral, 30 mg/kg/day, 14 days; measurement = creatinine; value = 23.3 µM
SMILES = CCC[C@@](N)(CO)CCc1ccc(OCCCCCC(C)C)cc1; test system = dog, male hounds, plasma; conditions = oral capsule, 20 mg/kg, geometric mean; measurement = AUC(0-72 h); value = 20.9 µM·h
SMILES = CCN1[C@@H](C(=O)NC23CCC(C(=O)O)(CC2)CC3)[C@H](c2cccc(Cl)c2F)[C@]2(C(=O)Nc3cc(Cl)ccc32)C12CCCCC2; test system = patients with advanced solid tumours; conditions = oral, 100 mg; measurement = Neutropenia incidence; value = 27.3%
SMILES = CO[C@H]1C[C@@H]2CC[C@@H](C)[C@@](O)(O2)C(=O)C(=O)N2CCCC[C@H]2C(=O)O[C@H]([C@H](C)C[C@@H]2CC[C@@H](OC(=O)NCCOCCOCCOCCOCCOCCOCCOCCOCCC(=O)N3CCc4cc(Cn5nc(-c6ccc7oc(N)nc7c6)c6c(N)ncnc65)ccc4C3)[C@H](OC)C2)C[C@@H](O)[C@H](C)/C=C(\C)[C@@H](O)[C@@H](OC)C(=O)[C@H](C)C[C@H](C)/C=C/C=C/C=C/1C; test system = patients with advanced solid tumours; conditions = intravenous, 6 mg weekly, grade 3 or higher; measurement = decreased appetite leading to dose reduction; value = 0%
SMILES = CCN1CCN(Cc2ccc(Nc3ncc(F)c(-c4cc(F)c5nc6n(c5c4)[C@H](C)CCC6)n3)nc2)CC1; test system = advanced solid tumour patients; conditions = dose not given, Phase Ia monotherapy; measurement = Proteinuria incidence, any grade; value = 37.5%
SMILES = CN1CCN(S(=O)(=O)c2cc([N+](=O)[O-])ccc2N(CCOS(C)(=O)=O)CCOS(C)(=O)=O)CC1; test system = NSG mice female, plasma; conditions = intraperitoneal, 10 mg/kg, 1 h; measurement = concentration; value = 190 nM
SMILES = C[C@]1(O)C[C@@](N)(c2ccc(-c3nc4n(c3-c3ccccc3)COc3ccncc3-4)cc2)C1; test system = human, advanced or metastatic solid tumours; conditions = 20 mg once daily, phase I dose escalation; measurement = patients with Nausea TEAE; value = 16.7%
SMILES = O=C1NC(=O)C(c2ccccc2)(c2ccccc2)N1; test = PAMPA; test system = pre-coated trilayer membrane; conditions = 200 µM, 5 h, pH 7.4, acceptor plate, PBS; measurement = acceptor concentration; value = 24 ± 1.5 µM
SMILES = O=C(Nc1ccccc1)C1CCN(C(=O)Oc2cccnc2)CC1; test = psychotropic effects VAS; test system = healthy women; conditions = 100 mg; scale = baseline: pre-dose baseline, direction not given; measurement = change in Surroundings score; value = 0.2
SMILES = CC(=O)c1c(C)c2cnc(Nc3ccc(C4CCN(CCS(C)(=O)=O)CC4)cn3)nc2n(C2CCCC2)c1=O; test system = human, plasma; conditions = oral, 50 mg twice daily, day 1, single dose, added: letrozole; measurement = clearance; value = 2040 mL/min
SMILES = Oc1c(Cl)cc2c(c1Cl)Oc1cc(Cl)c(Cl)cc1O2; test system = whole cow milk; conditions = 100 nM nominal; measurement = dose fraction in milk fat; value = 54.8%
SMILES = COc1ccc([C@@H](O)c2cc(-c3ncnc4cc(N5CCOCC5)ccc34)c(F)cc2Cl)nn1; test system = patients, advanced solid tumours; conditions = oral, 300 mg twice daily, treatment-emergent, added: avelumab; measurement = metabolism, nutrition disorders incidence; value = 4%
SMILES = C[C@@H](NC(=O)N1C(=O)[C@H](Cc2ccnc(N)c2)[C@H]1C(=O)O)C1CCCCC1; test system = healthy adult Chinese volunteers; conditions = continuous intravenous infusion, 0.6 mg/kg/h, 5-day infusion, CTCAE 5.0 grading; measurement = incidence of abnormal liver function; value = 12.5%
SMILES = CC(=O)NCC(=O)NCC(=O)N[C@H](C(=O)N[C@@H](Cc1ccc(O)cc1)C(=O)N[C@@H](CO)C(=O)N[C@H]1CSSC[C@@H](C(=O)N[C@@H](CCCNC(=N)N)C(=O)N2CCC[C@H]2C(=O)N[C@@H](CCC(N)=O)C(=O)N[C@@H](CCCNC(=N)N)C(=O)NCC(=O)NCCC(=O)N[C@@H](CCCCNC(=O)CN(CC(=O)NCCCC[C@H](NC(=O)CCNC(=O)CNC(=O)[C@H](CCCNC(=N)N)NC(=O)[C@H](CCC(N)=O)NC(=O)[C@@H]2CCCN2C(=O)[C@H](CCCNC(=N)N)NC(=O)[C@@H]2CSSC[C@H](NC(=O)[C@H](CO)NC(=O)[C@H](Cc3ccc(O)cc3)NC(=O)[C@@H](NC(=O)CNC(=O)CNC(C)=O)[C@@H](C)O)C(=O)N[C@@H](Cc3c[nH]cn3)C(=O)N[C@@H](Cc3ccccc3)C(=O)NCC(=O)N[C@@H](C)C(=O)N[C@@H](CC(C)C)C(=O)N[C@@H]([C@@H](C)O)C(=O)N[C@@H](Cc3c[nH]c4ccccc34)C(=O)N[C@@H](C(C)C)C(=O)N2)C(N)=O)C(=O)CCN)C(N)=O)NC(=O)[C@H](C(C)C)NC(=O)[C@H](Cc2c[nH]c3ccccc23)NC(=O)[C@H]([C@@H](C)O)NC(=O)[C@H](CC(C)C)NC(=O)[C@H](C)NC(=O)CNC(=O)[C@H](Cc2ccccc2)NC(=O)[C@H](Cc2c[nH]cn2)NC1=O)[C@@H](C)O; test = MSD immunoassay; test system = BALB/c mice, healthy female, serum; conditions = subcutaneous, 0.08 mg/kg, 8 h, LLOQ 2.0 ng/mL; measurement = serum concentration; value = not detected
SMILES = COc1cc2c(Oc3ccc4[nH]c(C)cc4c3F)ccnc2cc1OCC1(N)CC1; test system = paediatric refractory sarcoma patients; conditions = 12 mg; measurement = weight loss incidence; value = 18.2%
SMILES = COc1ccc(-c2c(-c3ccc(C#N)c(F)c3)nc(N3CCC(N)CC3)n(C)c2=O)cc1F; test = measured: tumor pain; test system = human patients; conditions = oral, 60 mg, dose expansion; measurement = serious adverse event incidence; value = 0%
SMILES = CN1CC[C@@H](c2c(O)cc(O)c3c(=O)cc(-c4ccc(C(F)(F)F)cc4Cl)oc23)[C@@H]1CO; test = measured: Hypotension; test system = B-cell malignancies or AML; conditions = oral, 100 mg, continuous dosing; measurement = patients with adverse event; value = 12.5%
SMILES = CN1C(=O)[C@@H](NC(=O)c2nnc(Cc3ccccc3)[nH]2)COc2cccnc21; test = phase I multiple ascending dose; test system = human, male and female; conditions = oral, 100 mg, 14 days; measurement = participants with TEAE leading to death; value = 0%
SMILES = C[C@]1(CO)Cc2ncn(-c3ccc(C#N)c(Cl)c3)c2C(=O)O1; test system = Japanese subjects; conditions = 20 mg single dose; measurement = drug-related Headache incidence; value = 0%
SMILES = COc1cc2nccc(Oc3ccc(NC(=O)c4cc5c(n(-c6ccccc6)c4=O)CCCC5=O)nc3)c2cc1OC; test system = patients with relapsed/refractory AML; conditions = oral, 6 mg once daily; measurement = TEAEs leading to death; value = 0%
SMILES = CCCCCc1cc(O)c(C/C=C(\C)CCC=C(C)C)c(O)c1; test = LC-MS/MS; test system = Scn1a+/− mice, both sexes, plasma; conditions = intraperitoneal, 10 mg/kg, after hyperthermia protocol; measurement = plasma concentration; value = 92 ± 11 ng/mL
SMILES = Clc1cc2c(cc1Cl)Oc1cc(Cl)c(Cl)cc1O2; test = RNA-Seq, measured: Cyp2e1; test system = female Sprague-Dawley rat, liver; conditions = dose not given; scale = baseline: vehicle; measurement = mRNA level; value = 3.4 fold
SMILES = CC(C)CC(=O)OC[C@H]1O[C@@](C#N)(c2ccc3c(N)ncnn23)[C@H](O)[C@@H]1O; test system = Mice plasma; conditions = 5 µM, 15 min; measurement = remaining compound; value = 0.012 ± 0.003%
SMILES = N#C[C@@]1(n2ccc(N)nc2=O)O[C@H](CO)[C@@H](O)[C@H]1O; test system = CD-1 mouse, plasma; conditions = intravenous, 15 mg/kg; measurement = MRT; value = 1.02 h
SMILES = COc1ncccc1-c1cnn2ccc(N3CCN(C(=O)OC(C)C)CC3)nc12; test system = rat, CCI cold allodynia model, plasma; conditions = oral, 3 mg/kg, 240 min; measurement = drug concentration; value = 300 nM

Excerpt of the above:
SMILES = O=C1NC(=O)C(c2ccccc2)(c2ccccc2)N1; test = PAMPA; test system = pre-coated trilayer membrane; conditions = 200 µM, 5 h, pH 7.4, acceptor plate, PBS; measurement = acceptor concentration; value = 24 ± 1.5 µM
SMILES = O=C(Nc1ccccc1)C1CCN(C(=O)Oc2cccnc2)CC1; test = psychotropic effects VAS; test system = healthy women; conditions = 100 mg; scale = baseline: pre-dose baseline, direction not given; measurement = change in Surroundings score; value = 0.2
SMILES = CC(=O)c1c(C)c2cnc(Nc3ccc(C4CCN(CCS(C)(=O)=O)CC4)cn3)nc2n(C2CCCC2)c1=O; test system = human, plasma; conditions = oral, 50 mg twice daily, day 1, single dose, added: letrozole; measurement = clearance; value = 2040 mL/min
